Assay results gathered from unrelated publications.
A part holds a random share of what one study measured.

Set 1 — method: protein binding microarray; form: double-stranded DNA, one strand shown; medium: in vitro; concentration: not given; baseline: not given; direction: higher = stronger binding
Target: Histone acetyltransferase KAT6A, winged helix 2, GST fusion (KAT6A, Homo sapiens, UniProt Q92794, residues 85-181)
Setting: 8-mer, flanks averaged, mean of 2 arrays, mostly near background
Target sequence (chain): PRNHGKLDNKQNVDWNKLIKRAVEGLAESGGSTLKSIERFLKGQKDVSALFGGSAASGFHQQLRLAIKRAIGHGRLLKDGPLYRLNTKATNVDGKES
Oligonucleotide | E-score
CTAACAAG | -0.0737
TACTCCCA | 0.0683
GGGGCTAC | 0.105
AGATCCAG | 0.11

Set 2 — method: RNA Bind-n-Seq; form: RNA; medium: in vitro; concentration: 365 nM; baseline: no-protein control; direction: higher = stronger binding
Target: RNA binding protein fox-1 homolog 2, RRM domain, GST-SBP tag (RBFOX2, Homo sapiens, UniProt O43251-10, residues 100-194)
Setting: natural RNA segment, single round, ends assumed
Construct (chain): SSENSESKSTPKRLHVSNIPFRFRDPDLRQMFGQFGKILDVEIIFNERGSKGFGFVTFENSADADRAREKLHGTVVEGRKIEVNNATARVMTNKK
Oligonucleotide | RBNS enrichment (R)
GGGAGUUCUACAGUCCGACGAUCUGGUAACGGGGAUCACAUGCUCCAUGGUGCGCACGAUCCUGUGGUGUGAAGAGCAGGUCUGCUUUACCUUUCUUGCCAGGUUCAAACUGUGUUUUUAAAUGGAAGGGAUUUGGAAUUCUCGGGUGCCAA | 0.929
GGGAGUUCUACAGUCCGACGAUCGGAAAAAGCACAAGAAGCGUGAGAGAUACCGCCAUUCCUGGAGACAAAGCCCACCUGCUCAUUCUCGUAGCUUUAAAGAAAAAGAAAAAGGAAAAAUAAGGAAAACUGCAUGGAAUUCUCGGGUGCCAA | 1.75
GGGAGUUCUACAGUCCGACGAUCCUCCCCCUUCCUCCCUUUCCCCAUCCAGGGGCUGUGUAUUAUUGUGAGCGAAUAAACAGAGAGACGCAAUAUUACCCCAGCUAUUGACUGCCCACCCUGAGUGAUCAGAGUGGAAUUCUCGGGUGCCAA | 0.602
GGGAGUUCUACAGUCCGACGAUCAUUCGGCUUUCAACUUUGCUACCAUCUUCCCUGAAGCAGGAAAAUGAACAUGGACUUAAAUGUUCUUUGAAAAAACCAAAGUUUUAAGAUUUGCUGUGUGAUGAAGUGACUGGAAUUCUCGGGUGCCAA | 0.351
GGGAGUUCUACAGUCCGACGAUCUAUUCUGCAGAAAAUUAAUUGAAAUACCUAUUCAAGAAGAUAGUUGUAAAGAUAUUGUAUCUCCUUUAAUAUACUCCUUAAAAAUGUAUGUUGGUUUAGCGUUGUUUUGUUGGAAUUCUCGGGUGCCAA | 0.789
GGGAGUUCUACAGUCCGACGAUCCUUUGUACUACUGGUCCAGCUGCCUUGGGCUCCUUUUCUAUAUUAAUAAAGAAACGAGUAAAAAUUACCGGUGGGGAUGAUGUUUAAAAUUGCUCUGAUCACUGGUGGUGUGGAAUUCUCGGGUGCCAA | 0.854

Set 3 — method: aptamer microarray, sandwich; form: DNA with 2'F-ANA; medium: in vitro; concentration: 200 nM; with: Cy3 exosite-II aptamer, 400 nM; direction: higher = stronger binding
Target: Prothrombin, mature alpha-thrombin (F2, Homo sapiens, UniProt P00734)
Setting: whole 15-mer aptamer, many near background
Oligonucleotide | mean fluorescence intensity [a.u.]
GGTTGGTGTGGTTGG (2'F-ANA at 1 2 4 5 8 11 12) | 95.5
GGTTGGTGTGGTTGG (2'F-ANA at 1 6 9 14) | 53.6
GGTTGGTGTGGTTGG (2'F-ANA at 4 5 8 11 12 13) | 77.7
GGTTGGTGTGGTTGG (2'F-ANA at 2 4 5 6 7 8 10 11 12 13 15) | 56.4

Single results of other studies
Molecule | target | assay | system | conditions | how to read | measurement | result
PhoQ, residues 284 288 289 292 302 303 GANMMA | PhoP, residues 12 14 15 18 19 IQSYL (Escherichia coli, UniProt P23836) | Sort-seq, item: YFP reporter | E. coli | PhoQ-PhoP variant library, with: 10 µM Mg2+ | baseline: high Mg2+ state, higher = stronger signaling | fold induction | 3.92
